Results collected from several papers.
Lines come from different studies, so protocols differ. “And” joins repeats or separate records; there may be more than shown. Numbers after ± are the reported error.
Chain of UniProt Q9HC98 (whole entry, looked up): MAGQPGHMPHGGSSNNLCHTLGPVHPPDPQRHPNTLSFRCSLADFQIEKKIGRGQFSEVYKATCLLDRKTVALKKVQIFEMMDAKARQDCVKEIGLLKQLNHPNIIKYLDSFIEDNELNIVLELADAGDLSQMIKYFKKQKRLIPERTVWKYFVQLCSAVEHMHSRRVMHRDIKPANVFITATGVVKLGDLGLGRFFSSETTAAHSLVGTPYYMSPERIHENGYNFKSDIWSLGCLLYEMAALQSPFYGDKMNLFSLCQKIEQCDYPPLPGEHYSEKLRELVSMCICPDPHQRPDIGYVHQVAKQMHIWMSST
Chain of UniProt Q96RR4 (whole entry, looked up): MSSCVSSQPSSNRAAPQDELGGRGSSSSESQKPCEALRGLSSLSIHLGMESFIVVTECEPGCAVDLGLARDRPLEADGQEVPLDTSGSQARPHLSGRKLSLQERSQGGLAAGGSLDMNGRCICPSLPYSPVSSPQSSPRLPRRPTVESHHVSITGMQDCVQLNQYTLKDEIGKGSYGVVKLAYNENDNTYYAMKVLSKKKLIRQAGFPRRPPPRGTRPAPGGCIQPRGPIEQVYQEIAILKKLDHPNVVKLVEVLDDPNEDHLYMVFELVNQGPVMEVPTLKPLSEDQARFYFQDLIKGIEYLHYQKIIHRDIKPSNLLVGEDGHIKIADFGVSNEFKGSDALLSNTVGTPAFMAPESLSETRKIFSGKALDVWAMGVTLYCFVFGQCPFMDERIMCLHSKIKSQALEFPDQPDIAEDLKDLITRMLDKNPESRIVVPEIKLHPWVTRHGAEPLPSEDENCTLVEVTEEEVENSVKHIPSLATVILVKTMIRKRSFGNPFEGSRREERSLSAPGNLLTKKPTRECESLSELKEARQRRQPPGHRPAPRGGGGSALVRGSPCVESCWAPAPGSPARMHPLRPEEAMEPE
Chain of UniProt Q99683 (whole entry, looked up): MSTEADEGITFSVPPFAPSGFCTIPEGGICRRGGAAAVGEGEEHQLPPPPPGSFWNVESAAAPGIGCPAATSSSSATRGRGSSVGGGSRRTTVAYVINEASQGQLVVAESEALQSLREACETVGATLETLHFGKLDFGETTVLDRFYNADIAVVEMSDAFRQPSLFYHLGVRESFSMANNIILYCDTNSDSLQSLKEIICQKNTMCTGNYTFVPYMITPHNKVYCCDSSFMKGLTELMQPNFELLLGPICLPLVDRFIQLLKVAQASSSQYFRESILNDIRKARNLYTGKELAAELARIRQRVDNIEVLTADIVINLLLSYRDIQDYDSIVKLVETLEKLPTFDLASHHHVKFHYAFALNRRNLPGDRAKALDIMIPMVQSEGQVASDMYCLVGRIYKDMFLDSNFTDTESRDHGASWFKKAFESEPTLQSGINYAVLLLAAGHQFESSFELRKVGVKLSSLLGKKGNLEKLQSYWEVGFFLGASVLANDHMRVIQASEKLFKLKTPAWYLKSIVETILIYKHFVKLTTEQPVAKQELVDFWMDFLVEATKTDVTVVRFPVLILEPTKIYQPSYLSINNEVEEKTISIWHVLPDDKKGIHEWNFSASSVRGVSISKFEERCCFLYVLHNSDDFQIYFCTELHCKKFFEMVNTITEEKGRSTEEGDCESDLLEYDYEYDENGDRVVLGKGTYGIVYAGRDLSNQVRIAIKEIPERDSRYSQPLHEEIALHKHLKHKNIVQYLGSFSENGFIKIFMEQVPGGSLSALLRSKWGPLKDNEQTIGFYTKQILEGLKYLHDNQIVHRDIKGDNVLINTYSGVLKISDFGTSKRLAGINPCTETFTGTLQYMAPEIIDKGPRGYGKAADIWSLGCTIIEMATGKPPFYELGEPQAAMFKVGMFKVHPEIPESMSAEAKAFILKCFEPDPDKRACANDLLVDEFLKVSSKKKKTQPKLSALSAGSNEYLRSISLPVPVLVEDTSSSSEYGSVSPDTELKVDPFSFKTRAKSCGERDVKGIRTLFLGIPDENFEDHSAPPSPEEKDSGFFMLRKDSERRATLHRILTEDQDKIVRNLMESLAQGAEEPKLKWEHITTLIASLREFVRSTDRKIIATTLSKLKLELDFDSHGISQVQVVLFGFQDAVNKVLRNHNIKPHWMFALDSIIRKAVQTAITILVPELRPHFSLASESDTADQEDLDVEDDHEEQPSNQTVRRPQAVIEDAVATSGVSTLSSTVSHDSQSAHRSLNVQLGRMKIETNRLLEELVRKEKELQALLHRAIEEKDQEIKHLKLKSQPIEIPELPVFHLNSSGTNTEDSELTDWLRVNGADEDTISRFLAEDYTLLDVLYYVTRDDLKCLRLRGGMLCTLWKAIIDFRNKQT

With `C=Cc1c(C)c2cc3nc(c(CC(=O)[O-])c4[n-]c(cc5nc(cc1[n-]2)C(C)=C5CC)c(C)c4C(=O)[O-])C(CCC(=O)[O-])C3C.[Cu+2].[Na+].[Na+].[Na+]` (stereo not shown) the serum cholesterol was 48.3 ± 9.97 mg/dL (Wistar rat, female; oral, 500 mg/kg daily, 28 days).
For `C=CC(=O)Nc1cccc(Cn2ncc3cnc(Nc4cnn(CCOC)c4)nc32)c1`, “mean corpuscular haemoglobin” read 22.6 ± 1.28 pg (Sprague-Dawley rat female, blood; oral, 180 mg/kg, day 28, 28-day subacute toxicity).
Under “serum LDH activity”, `O=C1NC2(CC2)COc2ncc(F)cc2[C@H]2COCCN2c2ccn3ncc1c3n2` is recorded as 951 ± 156 U/L (Sprague-Dawley rat, male, serum; oral, 5 mg/kg/day, end of recovery, 4-week subacute toxicity).
With `CC[C@H](C)[C@H](NC(=O)[C@H](CCCCN)NC(=O)CNC(=O)[C@H](CC(C)C)NC(=O)[C@H](Cc1ccccc1)NC(=O)[C@H](CCCCN)NC(=O)[C@H](CO)NC(=O)[C@H](Cc1ccccc1)NC(=O)[C@H](Cc1c[nH]c2ccccc12)NC(=O)[C@H](CCC(N)=O)NC(=O)[C@@H](NC(=O)[C@H](Cc1ccccc1)NC(=O)CCCCCNC(=O)CN1CCN(CC(=O)O)CCN(CC(=O)O)CCN(CC(=O)O)CC1)C(C)C)C(=O)N[C@@H](CCC(=O)O)C(=O)N1CCC[C@H]1C(=O)N[C@@H](CC(=O)O)C(=O)N[C@H](C(=O)N[C@@H](CO)C(=O)N[C@@H](CCC(N)=O)C(=O)N[C@H](C(=O)N[C@@H](CCC(N)=O)C(=O)N[C@@H](CC(=O)O)C(=O)N1CCC[C@H]1C(=O)N[C@@H](CC(N)=O)C(=O)N[C@@H](CC(=O)O)C(=O)N[C@@H](CCC(N)=O)C(=O)N[C@@H](Cc1ccc(O)cc1)C(=O)N[C@@H](CCC(=O)O)C(=O)N1CCC[C@H]1C(=O)N[C@@H](Cc1ccccc1)C(=O)O)C(C)C)C(C)C` [copper-64 labelled] the SUVmean was 0.49 SUV (dynamic PET; mouse both sexes, CT26 tumour, untreated, tumour; intravenous, 100 µCi/mouse, 130 s).
For `CC(C)[C@H]1NC(=O)C[C@H]2/C=C/CCSSC[C@@H](NC1=O)C(=O)N[C@H](Cc1cccc3ccccc13)C(=O)NCC(=O)O2`, the inhibition was 15.8% (NEK6 (Homo sapiens, UniProt Q9HC98); enzyme activity, inhibitor; 10 µM).
`COc1cnc2cccc(N3CCc4c(cc(Cn5ccnc5)cc4-c4cn(C)nc4C(F)(F)F)C3=O)c2c1` has a body weight of 21.8 g and 21.6 g and 22.3 g and 24.6 g (BALB/c nude mice, MV4-11 xenograft; intraperitoneal, 75 mg/kg, day 17).
For `CN(C)[C@H]1C[C@@]23CC[C@@]4(O2)C(=CC[C@]2(C)[C@@H](c5ccc6ccncc6c5)CC[C@H]24)C=C3[C@@H](O)[C@@H]1O`, the inhibition was -1.5% (CAMKK2 (Homo sapiens, UniProt Q96RR4); ATP probe labelling, inhibitor, KiNativ profiling; 1 µM).
For `CSCC[C@H](NC(=O)CNC(=O)[C@H](CCCCN)NC(=O)[C@H](CC(C)C)NC(=O)[C@@H]1CCCN1C(=O)[C@H](CO)NC(=O)[C@H](Cc1c[nH]cn1)NC(=O)[C@H](Cc1c[nH]c2ccccc12)NC(=O)[C@H](CCCNC(=N)N)NC(=O)[C@H](CC(C)C)NC(=O)[C@H](CCCNC(=N)N)NC(=O)[C@H](Cc1c[nH]c2ccccc12)NC(=O)[C@H](CS)NC(=O)CCCCCNC(=O)CN1CCN(CC(=O)O)CCN(CC(=O)O)CCN(CC(=O)O)CC1)C(=O)O` [copper-64 labelled], the tissue uptake was 15.1 ± 1.59 %ID/g (PET imaging; C57BL/6J mice bearing B16-F10 tumours, kidney; intravenous, 57.5 min).
For `CC[C@H](C)[C@H](NC(C)=O)C(=O)N[C@@H](Cc1ccc(O)cc1)C(=O)N[C@@H](CC(C)C)C(=O)N[C@@H](CS)C(=O)NCC(=O)N[C@@H](C)C(=O)N[C@H](C(=O)N[C@@H](CO)C(=O)N[C@@H](CC(C)C)C(=O)N[C@@H](Cc1c[nH]cn1)C(=O)N1CCC[C@H]1C(=O)N[C@@H](CCCCN)C(=O)N[C@@H](C)C(=O)N[C@@H](CCCCN)C(=O)N[C@H](C(=O)N[C@@H](CCC(=O)O)C(=O)N[C@@H](CCC(=O)O)C(=O)N[C@@H](CO)C(=O)N1CCC[C@H]1C(=O)NCC(=O)N[C@@H](C)C(N)=O)[C@@H](C)CC)[C@@H](C)CC`, the elimination half-life was 48 min (Cy5.5 fluorescence; mouse (C57BL/6), serum; intravenous, 10 mg/kg, 15 min to 24 h).
`CC(C)(C)C(=O)OCOP(=O)(OCOC(=O)C(C)(C)C)C1CCCN(O)C1=O` (stereo not shown) gave a log LC50 of -4.34 log M (SK-MEL-2).
The organ weight of `CC(C)[C@H](NC(=O)[C@@H](NC(=O)[C@H](CCCNC(=N)N)NC(=O)[C@H](CCCNC(=N)N)NC(=O)[C@H](CCCNC(=N)N)NC(=O)[C@H](CCC(N)=O)NC(=O)[C@H](CCCNC(=N)N)NC(=O)[C@H](CCCNC(=N)N)NC(=O)[C@H](CCCCN)NC(=O)[C@H](CCCCN)NC(=O)[C@H](CCCNC(=N)N)NC(=O)CN)[C@@H](C)O)C(=O)N[C@H](C(=O)N[C@@H](CO)C(=O)N1CCC[C@H]1C(=O)O)[C@@H](C)O` is reported as 0.37 ± 0.036 g (ICR mice, female, stomach; intranasal, 5 mg/kg daily, 4 weeks).
`N#[11C]c1ccc(-c2csc(NN=C3CCCC3)n2)cc1`: “uptake in testis” 1.07 ± 0.25 %ID/g (C57BL/6 mouse, male; intravenous, 3 MBq, 30 min).
Under “mean tissue distribution”, `CSCC[C@H](N)C(=O)N[C@@H](C)C(=O)N[C@@H](Cc1c[nH]c2ccccc12)C(=O)N[C@@H](Cc1c[nH]cn1)C(=O)N[C@@H](CC(=O)O)C(=O)N[C@@H](CC(=O)O)C(=O)N[C@@H](CCC(=O)O)C(=O)N[C@@H](CCC(=O)O)C(=O)N[C@@H](Cc1ccccc1)C(=O)N[C@@H](C)C(=O)N[C@@H](CCCNC(=N)N)C(=O)N[C@@H](CCCNC(=N)N)C(=O)N[C@@H](CCCNC(=N)N)C(=O)N[C@@H](CCCNC(=N)N)C(=O)NCCCCCC(=O)NCCCCC(NC(=O)CCCCCNC(=O)[C@H](CCCNC(=N)N)NC(=O)[C@H](CCCNC(=N)N)NC(=O)[C@H](CCCNC(=N)N)NC(=O)[C@H](CCCNC(=N)N)NC(=O)[C@H](C)NC(=O)[C@H](Cc1ccccc1)NC(=O)[C@H](CCC(=O)O)NC(=O)[C@H](CCC(=O)O)NC(=O)[C@H](CC(=O)O)NC(=O)[C@H](CC(=O)O)NC(=O)[C@H](Cc1c[nH]cn1)NC(=O)[C@H](Cc1c[nH]c2ccccc12)NC(=O)[C@H](C)NC(=O)[C@@H](N)CCSC)C(=O)NCCCCC(NC(=O)C(CCCCNC(=O)CCCCCNC(=O)[C@H](CCCNC(=N)N)NC(=O)[C@H](CCCNC(=N)N)NC(=O)[C@H](CCCNC(=N)N)NC(=O)[C@H](CCCNC(=N)N)NC(=O)[C@H](C)NC(=O)[C@H](Cc1ccccc1)NC(=O)[C@H](CCC(=O)O)NC(=O)[C@H](CCC(=O)O)NC(=O)[C@H](CC(=O)O)NC(=O)[C@H](CC(=O)O)NC(=O)[C@H](Cc1c[nH]cn1)NC(=O)[C@H](Cc1c[nH]c2ccccc12)NC(=O)[C@H](C)NC(=O)[C@@H](N)CCSC)NC(=O)CCCCCNC(=O)[C@H](CCCNC(=N)N)NC(=O)[C@H](CCCNC(=N)N)NC(=O)[C@H](CCCNC(=N)N)NC(=O)[C@H](CCCNC(=N)N)NC(=O)[C@H](C)NC(=O)[C@H](Cc1ccccc1)NC(=O)[C@H](CCC(=O)O)NC(=O)[C@H](CCC(=O)O)NC(=O)[C@H](CC(=O)O)NC(=O)[C@H](CC(=O)O)NC(=O)[C@H](Cc1c[nH]cn1)NC(=O)[C@H](Cc1c[nH]c2ccccc12)NC(=O)[C@H](C)NC(=O)[C@@H](N)CCSC)C(N)=O` (stereo partly shown) is recorded as 1.59% (C57BL/6 mouse female, femur; dose not given, 3 h; relative to: total).
For `CC(C)[C@@H]1NC(=O)CNC(=O)[C@H](CC(N)=O)NC(=O)[C@H](CCCNC(=N)N)NC(=O)[C@H](Cc2ccc(O)cc2)NC(=O)[C@H](C(C)C)NC(=O)[C@@H](NC(=O)[C@@H](NC(=O)[C@H](CC(N)=O)NC(=O)[C@H](Cc2c[nH]c3ccccc23)NC(=O)[C@H](C)NC(=O)[C@H](Cc2ccccc2)NC(=O)CNC(=O)[C@H](CCCCN)NC(=O)[C@H](Cc2ccccc2)NC(=O)[C@H](Cc2ccccc2)NC(=O)[C@H](CCCCN)NC(=O)OCC2c3ccccc3-c3ccccc32)C(C)C)CSSC[C@@H](C(=O)N[C@@H](Cc2c[nH]cn2)C(=O)N[C@@H](CCCNC(=N)N)C(=O)N[C@@H](CCCNC(=N)N)C(=O)N[C@@H](C)C(=O)N[C@@H](CC(N)=O)C(N)=O)NC(=O)[C@H](C(C)C)NC(=O)[C@H](CCCNC(=N)N)NC1=O`, the eosinophils was 2.45 ± 0.22% (ICR mice, blood; intraperitoneal, 5 mg/kg, day 5).
`COc1ccccc1-c1n[nH]c2nc(N[C@H]3CC[C@H](NS(=O)(=O)CC(C)C)CC3)ncc12` has a relative abundance of 0.67 (bead binding, competition bead pull-down, measured: LINJ.05.0550; Leishmania donovani extract; 10 µM; relative to: vehicle).
The plasma concentration of `CC(CCC(=O)NCC(=O)O)C1CCC2C3CCC4CC(OC5OC(C(=O)O)C(O)C(O)C5O)CCC4(C)C3CC(O)C12C` (stereo not shown) is reported as 40.5 ng/mL (women, T/T genotype, plasma; dose not given, geometric mean).
`Cc1cc(-c2ccc3ccccc3c2)nnc1NCCN1CCN(C)CC1` gave a compound remaining of 87.7% (metabolic stability; human, liver microsomes; 1 h).
`CN1Cc2cc(Cl)ccc2-n2c(nnc2C2CCN(c3cccc([18F])n3)CC2)C1` has a tissue uptake of 4.51 ± 1.63 %ID/g (C57BL/6 mouse male, thymus; intravenous, 3.7 MBq, 1 min).
The tissue uptake of `C[C@H](O)[C@@H](NC(=O)[C@H]1CCCN1C(=O)[C@@H](CCCCN)NC(=O)[C@@H](CO)NC(=O)[C@@H](Cc1ccc(O)cc1)NC(=O)[C@@H](CC(N)=O)NC(=O)CCOCCOCCOCCNC(=O)CN1CCN(CC(=O)O)CCN(CC(=O)O)CCN(CC(=O)O)CC1)C(=O)N[C@H](CC(=O)O)C(=O)N[C@H](CCCNC(=N)N)C(=O)N[C@H](CCC(N)=O)C(=O)N[C@H](Cc1ccc(O)cc1)C(=O)N[C@H](Cc1c[nH]cn1)C(=O)N[C@H](Cc1ccccc1)C(N)=O` [copper-64 labelled] is reported as 1.08 ± 0.57 %ID/g (C57BL/6J mice, bone; intravenous, 1.85 MBq, 0.3333 h, radiolabelled).
The remaining activity of `O=C1NC(=O)c2c1c1cc(F)c[n+]3c1c1c2c2cc(O)ccc2[n]1[Ru-4]312([N]=C=S)[S+]3CC[S+]1CC[S+]2CC3` (stereo not shown) is reported as 114% (MAP3K5 (Homo sapiens, UniProt Q99683); enzyme activity; 100 nM, human enzyme, together with: 10 µM ATP; relative to: untreated).
For `CC(C)(N)CNC(=O)Oc1cccc([C@H]2CCC[C@@]3(C2)OOC2(O3)C3CC4CC(C3)CC2C4)c1` (stereo partly shown), the microsomal CLint was less than 11 µL/min/mg (metabolic stability; human, liver microsomes).
The log Papp of `CCCCC[C@@H]1NC(=O)[C@@H](C)N(C)C(=O)[C@H](CCCCC)N(C)C(=O)[C@@H](C)N(C)C(=O)[C@H](CCCCC)N(C)C(=O)[C@@H](C)N(C)C(=O)[C@H](CCCCC)N(C)C(=O)[C@@H](C)N(C)C1=O` is reported as 4.68 ×10⁻⁶ cm/s (PAMPA; 500 µM, pH 7.4).
For `Cc1nc2cccc(OCC(C)(C)C(=O)NC(C)C)c2c(N)c1C(=O)[O-].[Na+]`, “revertant colonies per plate” read 10 ± 2 (Salmonella typhimurium; TA1535; 5.0 mg per plate, without S9, plate incorporation).
`CN[C@H](CC(C)C)C(=O)N[C@H]1C(=O)N[C@@H](CC(N)=O)C(=O)N[C@H]2C(=N)N[C@H]3C(=O)N[C@H](C(=O)N[C@H](C(=O)NCCCNC(=N)N)c4cc(O)cc(O)c4-c4cc3ccc4O)[C@H](O)c3ccc(c(Cl)c3)Oc3cc2cc(c3O[C@@H]2O[C@H](CO)[C@@H](O)[C@H](O)[C@H]2O[C@H]2C[C@](C)(NCc3ccc(-c4ccc(Cl)cc4)cc3)[C@H](O)[C@H](C)O2)Oc2ccc(cc2Cl)[C@H]1O` has an AUC of 106 µM·h (mouse; intravenous, 10 mg/kg).
The relative abundance of `COc1ccccc1-c1n[nH]c2nc(NC3CCN(C(=O)Cc4ccc(F)cc4F)CC3)ncc12` is reported as 0.95 (bead binding, competition bead pull-down, measured: LINJ.05.0500; Leishmania donovani extract; 10 µM; relative to: vehicle).

Some of these lines once more:
For `CN(C)[C@H]1C[C@@]23CC[C@@]4(O2)C(=CC[C@]2(C)[C@@H](c5ccc6ccncc6c5)CC[C@H]24)C=C3[C@@H](O)[C@@H]1O`, the inhibition was -1.5% (CAMKK2 (Homo sapiens, UniProt Q96RR4); ATP probe labelling, inhibitor, KiNativ profiling; 1 µM).
For `CSCC[C@H](NC(=O)CNC(=O)[C@H](CCCCN)NC(=O)[C@H](CC(C)C)NC(=O)[C@@H]1CCCN1C(=O)[C@H](CO)NC(=O)[C@H](Cc1c[nH]cn1)NC(=O)[C@H](Cc1c[nH]c2ccccc12)NC(=O)[C@H](CCCNC(=N)N)NC(=O)[C@H](CC(C)C)NC(=O)[C@H](CCCNC(=N)N)NC(=O)[C@H](Cc1c[nH]c2ccccc12)NC(=O)[C@H](CS)NC(=O)CCCCCNC(=O)CN1CCN(CC(=O)O)CCN(CC(=O)O)CCN(CC(=O)O)CC1)C(=O)O` [copper-64 labelled], the tissue uptake was 15.1 ± 1.59 %ID/g (PET imaging; C57BL/6J mice bearing B16-F10 tumours, kidney; intravenous, 57.5 min).
